Experimental data from different studies.
Protocols differ between the studies behind these lines. “And” joins repeats or separate records; there may be more than shown. Numbers after ± are the reported error.
ADORA1: Adenosine receptor A1 (ADORA1, Homo sapiens, UniProt P30542)
Chain of UniProt P30542 (whole entry, looked up): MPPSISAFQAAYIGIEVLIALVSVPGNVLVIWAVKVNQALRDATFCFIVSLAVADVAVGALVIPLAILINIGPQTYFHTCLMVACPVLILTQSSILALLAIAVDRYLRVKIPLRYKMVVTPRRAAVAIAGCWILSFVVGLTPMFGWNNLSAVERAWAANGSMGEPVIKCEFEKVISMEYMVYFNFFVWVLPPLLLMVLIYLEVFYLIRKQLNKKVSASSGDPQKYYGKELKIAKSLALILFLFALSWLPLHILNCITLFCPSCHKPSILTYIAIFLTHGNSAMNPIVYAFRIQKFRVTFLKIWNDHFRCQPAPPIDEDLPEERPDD
ABO G235S/G268A/L266M/R176G: Histo-blood group ABO system transferase (ABO, Homo sapiens, UniProt P16442, G235S/G268A/L266M/R176G)
Chain of UniProt P16442 (whole entry, unmodified, looked up): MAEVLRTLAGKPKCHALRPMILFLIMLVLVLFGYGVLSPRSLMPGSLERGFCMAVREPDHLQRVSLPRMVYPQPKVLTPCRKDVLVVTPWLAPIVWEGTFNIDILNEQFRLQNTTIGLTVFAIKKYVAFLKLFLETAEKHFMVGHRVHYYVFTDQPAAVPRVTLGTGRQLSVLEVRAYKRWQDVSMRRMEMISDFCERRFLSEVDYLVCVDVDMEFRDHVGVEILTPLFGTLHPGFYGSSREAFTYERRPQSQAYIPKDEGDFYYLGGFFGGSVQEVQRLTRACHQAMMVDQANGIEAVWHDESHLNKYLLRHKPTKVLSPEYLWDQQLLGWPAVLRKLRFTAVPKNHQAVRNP
RIPK1: Receptor-interacting serine/threonine-protein kinase 1 (RIPK1, Homo sapiens, UniProt Q13546)
Chain of UniProt Q13546 (whole entry, looked up): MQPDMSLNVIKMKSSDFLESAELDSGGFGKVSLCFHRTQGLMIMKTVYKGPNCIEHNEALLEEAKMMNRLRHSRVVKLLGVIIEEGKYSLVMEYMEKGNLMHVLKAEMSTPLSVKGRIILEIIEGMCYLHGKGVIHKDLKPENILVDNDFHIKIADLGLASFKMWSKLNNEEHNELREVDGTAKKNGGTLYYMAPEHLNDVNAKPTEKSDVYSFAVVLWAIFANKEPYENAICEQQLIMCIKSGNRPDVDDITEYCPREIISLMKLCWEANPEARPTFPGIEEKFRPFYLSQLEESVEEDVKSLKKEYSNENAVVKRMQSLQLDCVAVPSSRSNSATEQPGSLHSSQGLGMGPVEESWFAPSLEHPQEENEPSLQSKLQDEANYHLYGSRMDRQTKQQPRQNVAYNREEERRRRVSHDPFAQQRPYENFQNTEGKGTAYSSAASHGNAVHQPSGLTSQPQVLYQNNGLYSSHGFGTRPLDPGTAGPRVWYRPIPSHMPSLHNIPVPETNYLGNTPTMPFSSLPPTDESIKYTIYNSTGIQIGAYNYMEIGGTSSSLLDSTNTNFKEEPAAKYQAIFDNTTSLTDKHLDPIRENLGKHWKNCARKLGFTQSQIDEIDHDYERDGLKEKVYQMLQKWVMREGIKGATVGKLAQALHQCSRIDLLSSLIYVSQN
Bone morphogenetic protein 2: Bone morphogenetic protein 2 (Homo sapiens, UniProt P12643)
Chain of UniProt P12643 (whole entry, looked up): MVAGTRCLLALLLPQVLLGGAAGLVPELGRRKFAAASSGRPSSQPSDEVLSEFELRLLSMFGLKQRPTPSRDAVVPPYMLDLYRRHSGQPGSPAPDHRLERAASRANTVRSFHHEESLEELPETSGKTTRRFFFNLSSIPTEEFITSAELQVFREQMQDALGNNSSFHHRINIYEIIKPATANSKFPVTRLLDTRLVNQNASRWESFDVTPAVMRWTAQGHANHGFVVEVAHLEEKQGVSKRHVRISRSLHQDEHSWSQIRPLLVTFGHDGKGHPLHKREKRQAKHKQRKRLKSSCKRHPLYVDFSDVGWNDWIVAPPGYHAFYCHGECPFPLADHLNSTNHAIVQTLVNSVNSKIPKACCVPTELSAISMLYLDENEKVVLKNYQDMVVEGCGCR
Chain of UniProt P07814 (whole entry, looked up): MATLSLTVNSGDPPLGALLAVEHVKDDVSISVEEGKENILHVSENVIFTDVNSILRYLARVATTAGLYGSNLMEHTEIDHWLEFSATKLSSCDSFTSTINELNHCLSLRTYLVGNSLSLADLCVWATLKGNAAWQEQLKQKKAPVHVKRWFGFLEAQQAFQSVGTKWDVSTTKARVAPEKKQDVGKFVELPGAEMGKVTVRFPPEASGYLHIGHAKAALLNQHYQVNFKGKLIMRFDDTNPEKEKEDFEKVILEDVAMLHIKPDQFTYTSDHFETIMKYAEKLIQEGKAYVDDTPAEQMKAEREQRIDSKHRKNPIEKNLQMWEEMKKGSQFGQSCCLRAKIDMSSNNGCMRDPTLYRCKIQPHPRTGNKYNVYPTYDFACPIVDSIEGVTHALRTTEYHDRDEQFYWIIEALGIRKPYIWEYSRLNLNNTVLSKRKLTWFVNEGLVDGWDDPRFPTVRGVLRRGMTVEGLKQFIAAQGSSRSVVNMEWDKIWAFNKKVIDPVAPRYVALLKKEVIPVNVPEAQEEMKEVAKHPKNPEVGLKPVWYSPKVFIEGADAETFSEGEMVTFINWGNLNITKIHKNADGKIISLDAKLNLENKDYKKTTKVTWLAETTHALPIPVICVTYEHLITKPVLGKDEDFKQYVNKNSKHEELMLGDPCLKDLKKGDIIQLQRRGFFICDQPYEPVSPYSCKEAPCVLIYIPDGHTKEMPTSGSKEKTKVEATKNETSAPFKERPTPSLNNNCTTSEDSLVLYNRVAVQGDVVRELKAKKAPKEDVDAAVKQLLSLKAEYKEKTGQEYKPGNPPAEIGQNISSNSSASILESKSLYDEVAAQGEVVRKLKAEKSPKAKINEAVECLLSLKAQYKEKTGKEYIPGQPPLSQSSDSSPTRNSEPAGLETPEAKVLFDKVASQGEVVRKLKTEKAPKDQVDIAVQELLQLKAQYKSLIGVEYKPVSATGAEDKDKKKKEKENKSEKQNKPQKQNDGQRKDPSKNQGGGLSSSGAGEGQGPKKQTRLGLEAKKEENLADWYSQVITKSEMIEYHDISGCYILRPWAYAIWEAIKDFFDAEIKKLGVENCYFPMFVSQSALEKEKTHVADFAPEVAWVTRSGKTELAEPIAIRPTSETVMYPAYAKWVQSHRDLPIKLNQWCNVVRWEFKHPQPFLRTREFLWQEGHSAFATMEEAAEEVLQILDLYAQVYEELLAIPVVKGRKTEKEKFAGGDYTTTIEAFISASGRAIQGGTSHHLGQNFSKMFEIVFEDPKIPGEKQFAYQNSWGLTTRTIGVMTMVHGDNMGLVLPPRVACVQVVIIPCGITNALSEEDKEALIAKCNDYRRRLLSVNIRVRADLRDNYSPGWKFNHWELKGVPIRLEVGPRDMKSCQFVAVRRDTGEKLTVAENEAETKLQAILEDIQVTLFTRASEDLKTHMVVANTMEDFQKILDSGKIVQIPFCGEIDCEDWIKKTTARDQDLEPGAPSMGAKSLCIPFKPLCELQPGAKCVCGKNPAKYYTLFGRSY
Chain of UniProt P15387 (whole entry, looked up): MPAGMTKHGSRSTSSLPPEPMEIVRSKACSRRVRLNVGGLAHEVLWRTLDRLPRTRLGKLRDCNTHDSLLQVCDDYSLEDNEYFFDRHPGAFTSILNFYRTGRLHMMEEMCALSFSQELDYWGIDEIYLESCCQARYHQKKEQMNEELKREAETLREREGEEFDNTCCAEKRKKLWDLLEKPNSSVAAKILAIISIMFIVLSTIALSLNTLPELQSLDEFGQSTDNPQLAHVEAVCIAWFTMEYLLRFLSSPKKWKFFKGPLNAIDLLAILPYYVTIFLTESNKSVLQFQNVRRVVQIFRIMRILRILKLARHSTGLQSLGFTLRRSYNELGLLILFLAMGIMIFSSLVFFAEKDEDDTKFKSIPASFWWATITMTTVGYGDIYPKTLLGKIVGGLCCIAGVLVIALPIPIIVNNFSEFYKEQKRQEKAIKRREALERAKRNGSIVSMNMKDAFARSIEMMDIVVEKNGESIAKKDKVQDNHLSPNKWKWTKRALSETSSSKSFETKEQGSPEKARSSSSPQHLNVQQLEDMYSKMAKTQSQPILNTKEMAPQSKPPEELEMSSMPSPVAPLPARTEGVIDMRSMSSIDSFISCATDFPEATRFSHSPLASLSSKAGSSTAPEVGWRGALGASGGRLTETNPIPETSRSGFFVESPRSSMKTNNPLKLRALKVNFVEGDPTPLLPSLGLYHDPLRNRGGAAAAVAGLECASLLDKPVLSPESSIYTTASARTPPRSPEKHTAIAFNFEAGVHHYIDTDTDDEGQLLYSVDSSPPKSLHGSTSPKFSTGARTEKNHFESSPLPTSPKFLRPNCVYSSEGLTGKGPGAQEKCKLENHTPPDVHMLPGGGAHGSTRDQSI
Chain of UniProt Q13131 (whole entry, unmodified, looked up): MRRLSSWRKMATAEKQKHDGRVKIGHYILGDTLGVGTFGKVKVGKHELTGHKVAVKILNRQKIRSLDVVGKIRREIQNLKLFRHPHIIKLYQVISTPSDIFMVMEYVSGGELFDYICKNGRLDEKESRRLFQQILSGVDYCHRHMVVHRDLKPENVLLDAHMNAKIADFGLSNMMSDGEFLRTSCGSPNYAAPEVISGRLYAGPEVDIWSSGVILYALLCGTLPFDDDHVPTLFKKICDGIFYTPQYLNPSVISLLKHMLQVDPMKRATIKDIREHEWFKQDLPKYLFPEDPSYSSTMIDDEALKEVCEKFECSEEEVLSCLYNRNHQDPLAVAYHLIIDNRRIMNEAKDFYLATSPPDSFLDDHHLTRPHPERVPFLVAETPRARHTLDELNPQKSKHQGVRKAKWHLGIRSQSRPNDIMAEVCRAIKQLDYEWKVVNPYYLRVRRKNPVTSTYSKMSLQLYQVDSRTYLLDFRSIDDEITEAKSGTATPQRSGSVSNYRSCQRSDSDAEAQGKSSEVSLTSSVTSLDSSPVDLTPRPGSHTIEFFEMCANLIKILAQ
Chain of UniProt P35625 (whole entry, looked up): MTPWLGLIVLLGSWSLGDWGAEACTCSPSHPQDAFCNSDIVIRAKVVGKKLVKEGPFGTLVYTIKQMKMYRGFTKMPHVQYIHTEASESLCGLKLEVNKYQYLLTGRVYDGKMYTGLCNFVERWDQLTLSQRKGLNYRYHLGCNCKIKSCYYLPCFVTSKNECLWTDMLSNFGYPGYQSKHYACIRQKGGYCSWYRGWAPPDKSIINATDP

CCCn1c(=O)c2[nH]c(-c3ccc(OCC(=O)NCCNC(=O)CCCCCNC(=O)CCCCCNS(=O)(=O)c4cccc5c(N(C)C)cccc45)cc3)nc2n(CCC)c1=O  Kd (ADORA1; CRE reporter gene, antagonist, parallel shift; CHO-A1; Gi-mediated inhibition, added: NECA and forskolin): 0.0724 µM
N=C(N)NCCC[C@H](NC(=O)[C@H](CS)NC(=O)[C@H](Cc1ccc(O)cc1)NC(=O)[C@H](Cc1c[nH]c2ccccc12)NC(=O)[C@H](CCCNC(=N)N)NC(=O)[C@H](Cc1c[nH]c2ccccc12)NC(=O)CNC(=O)[C@H](Cc1c[nH]cn1)NC(=O)CNC(=O)CN)C(N)=O  Kd (HIV RRE IB RNA; fluorescein-labelled RNA titration; 1 mM TCEP): 9 ± 1 µM
C=CCCCCCCO[C@@H]1O[C@H](CO)[C@@H](O[C@@H]2O[C@H](CO)[C@H](O)[C@H](O)[C@H]2O[C@@H]2O[C@@H](C)[C@@H](O)[C@@H](O)[C@@H]2O)[C@H](O)[C@H]1NC(C)=O  Kd (ABO G235S/G268A/L266M/R176G; methyl-TROSY NMR titration lineshape analysis; apo enzyme): 291 ± 6 µM
COc1cc2nc(NC(=O)C3CC3)sc2cc1Oc1ccc(F)c(NC(=O)Cc2cccc(C(F)(F)F)c2)c1  Kd (RIPK1; binding, competition with immobilised ligand): 0.14 µM
Cc1ccc(Oc2nc3cc(-c4ccc5c(ccn5C)c4)c(Cl)cc3[nH]2)cc1C(=O)O  Kd (PRKAA1/PRKAB1, phosphorylated; with gamma1 (Homo sapiens, UniProt Q13131+Q9Y478, S108A); biolayer interferometry; AMPK complex α1β1(S108A)γ1): 8.9 µM
CC1(C)Cc2sc(NC(=O)Cc3ccc(S(N)(=O)=O)cc3)c(C#N)c2CN1CC1CCCCC1  Kd (Genome polyprotein, NS4B (Dengue virus type 1, UniProt P17763); binding, isothermal titration calorimetry; NS4B, DENV-1): 0.437 µM
COc1cccc(CC(C)C(=O)Nc2ccc3[nH]c(-c4cscn4)nc3c2)c1 (centres unmarked)  Kd (Kcnb1 (Rattus norvegicus, UniProt P15387); ion current, blocker, patch clamp): 0.0062 ± 0.0012 µM
CC[C@H](C)[C@H](NC(=O)[C@@H](NC(=O)[C@H](CS)NC(=O)[C@H](CCSC)NC(C)=O)[C@@H](C)O)C(=O)N[C@@H](CC(=O)O)C(=O)N[C@@H](Cc1ccc(F)cc1)C(=O)N[C@@H](CC(=O)O)C(=O)N[C@@H](CCC(=O)O)C(=O)N[C@@H](Cc1ccc(O)cc1)C(=O)N[C@@H](CCCNC(=N)N)C(=O)N[C@@H](Cc1ccc(F)cc1)C(=O)N[C@@H](CCCNC(=N)N)C(=O)N[C@@H](CCCCN)C(=O)N[C@H](C(N)=O)[C@@H](C)O  Kd (Breast cancer type 1 susceptibility protein, tandem BRCT domains (BRCA1, Homo sapiens, UniProt P38398); binding, ITC; thioredoxin-BRCT fusion; pH 7.4, 25 °C): 3.7 µM
CCOc1ccc2nc(Sc3nc(Nc4ccc(I)cc4)nc(N4CCOCC4)n3)sc2c1  Kd (PIKFYVE (Homo sapiens, UniProt Q9Y2I7); binding, KINOMEscan): 0.034 µM
Cc1ccc(S/N=C/c2c(O)ccc3ccccc23)cc1  Kd (Poly(ADP-ribose) glycohydrolase (Homo sapiens, UniProt Q86W56, N869A); isothermal titration calorimetry; mutant protein): ~64.4 µM
O=C(Cc1cccc(C(F)(F)F)c1)Nc1cc(Oc2c(Br)cc3nc(NC(=O)C4CC4)sc3c2Br)ccc1F  Kd (RIPK1; binding, competition with immobilised ligand): 0.27 µM
CCCn1c(=O)c2[nH]c(-c3ccc(OCC(=O)NCCNC(=O)CCCCCNS(=O)(=O)c4ccc(C5=c6cc7c8c(c6Oc6c5cc5c9c6CCCN9CCC5)CCC[N+]=8CCC7)c(S(=O)(=O)[O-])c4)cc3)nc2n(CCC)c1=O  Kd (ADORA1; CRE reporter gene, antagonist; CHO-A1; Gs response, PTX-pretreated overnight, added: NECA and forskolin): 0.49 µM
CCCCCCCCO[C@@H]1O[C@H](CO)[C@H](O)[C@H](O)[C@H]1O[C@@H]1O[C@@H](C)[C@@H](O)[C@@H](O)[C@@H]1O  Kd (ABO G235S/G268A/L266M/R176G; methyl-TROSY NMR titration lineshape analysis; apo enzyme): 164 ± 4 µM
CC(=O)N[C@@H]1[C@@H](O[C@@H]2O[C@H](C(=O)O)[C@@H](O[C@@H]3O[C@H](COS(=O)(=O)O)[C@@H](OS(=O)(=O)O)[C@H](O[C@@H]4O[C@H](C(=O)O)[C@@H](OS(=O)(=O)O)[C@H](OS(=O)(=O)O)[C@H]4OS(=O)(=O)O)[C@H]3NC(C)=O)[C@H](OS(=O)(=O)O)[C@H]2OS(=O)(=O)O)[C@H](OS(=O)(=O)O)[C@@H](COS(=O)(=O)O)O[C@H]1N=[N+]=[N-]  Kd (Metalloproteinase inhibitor 3 (Homo sapiens, UniProt P35625); ligand displacement, FP): 0.27 µM
N[C@@H](Cc1ccc(O)c(I)c1)C(=O)O  Kd (Iodotyrosine deiodinase (IYD, Thermotoga neapolitana, UniProt B9K712); binding, FMN fluorescence quenching; pH 7.4, 25 °C, wild-type enzyme): 0.05 ± 0.02 µM
CC(=O)c1cnc(N)nc1N1CC[C@H]1c1nn2ccc(Cl)c2c(=O)n1-c1ccccc1  Kd (Phosphatidylinositol 4,5-bisphosphate 3-kinase catalytic subunit delta isoform, with p85 (PIK3CD, Homo sapiens, UniProt O00329); binding, SPR): 0.00243 µM
COc1cc(-c2nc3ccc(C(=O)NCCCN4CCN(c5cccc(C)c5C)CC4)cc3n2C2CCC2)cc(OC)c1OC  Kd (BMPR1A (Homo sapiens, UniProt P36894); binding, TR-FRET): 0.113 µM
C[C@H](NC(=O)[C@H](C)NC(=O)[C@H](Cc1ccc(O)cc1)NS(=O)(=O)c1cccc2c(N(C)C)cccc12)C(=O)N[C@@H](CCCNC(=N)N)C(=O)N[C@@H](CCCCN)C(=O)N[C@@H](Cc1ccccc1)C(=O)N[C@@H](C)C(=O)N[C@@H](CCCCN)C(=O)O  Kd (Rho guanine nucleotide exchange factor TIAM2, PDZ domain (Tiam2, Mus musculus, UniProt Q6ZPF3); fluorescence anisotropy; 25 °C, added: dansylated peptide 1 µM): > 250 µM
CC(C)C[C@H](NC(=O)[C@H](CC(C)C)NC(=O)[C@H](CC(=O)O)NC(=O)[C@@H](N)CCCCN)C(=O)N[C@@H](CCC(=O)O)C(=O)N[C@@H](CCC(N)=O)C(=O)N[C@@H](CCCCN)C(=O)N[C@@H](CCCNC(=N)N)C(=O)N[C@@H](C)C(=O)N[C@@H](C)C(=O)N[C@H](C(=O)N[C@@H](CC(=O)O)C(=O)N[C@H](C(=O)N[C@@H](Cc1ccc(O)cc1)C(=O)N[C@@H](CS)C(=O)O)[C@@H](C)O)C(C)C  Kd (Calreticulin, N-domain (Calr, Mus musculus, UniProt P14211); SPR; pH 7.4, 25 °C): 9.6 ± 3.8e-06 µM
Cc1cc(N2CC[C@@](C#N)(C3CC3)C2=O)cc(NC(=O)Cc2ccccc2)n1  Kd (Bifunctional glutamate/proline--tRNA ligase, prolyl-tRNA synthetase domain (EPRS1, Homo sapiens, UniProt P07814); binding, microscale thermophoresis): 0.0208 µM and 0.0352 µM
CC(=O)N[C@H]1[C@H](O[C@H]2[C@H](OS(=O)(=O)O)[C@@H](OS(=O)(=O)O)[C@H](O[C@H]3[C@H](OS(=O)(=O)O)[C@@H](COS(=O)(=O)O)OC[C@@H]3NC(C)=O)O[C@@H]2C(=O)O)O[C@H](COS(=O)(=O)O)[C@@H](OS(=O)(=O)O)[C@@H]1O[C@@H]1O[C@H](C(=O)O)[C@@H](OS(=O)(=O)O)[C@H](OS(=O)(=O)O)[C@H]1OS(=O)(=O)O  Kd (Bone morphogenetic protein 2; ligand displacement, FP): 3.4 µM
Cc1cc(N2CC[C@](C#N)(C3(C)CC3)C2=O)cc(C(=O)NCc2cc(F)cc(-c3cnn(C)c3)c2)n1  Kd (EPRS1 (Homo sapiens, UniProt P07814); binding, MST): 1.48 µM
CC(=O)N[C@@H]1[C@@H](O[C@@H]2O[C@H](C(=O)O)[C@@H](O[C@@H]3O[C@H](COS(=O)(=O)O)[C@@H](O)[C@H](O[C@@H]4O[C@H](C(=O)O)[C@@H](O)[C@H](O)[C@H]4O)[C@H]3NC(C)=O)[C@H](O)[C@H]2O)[C@H](O)[C@@H](COS(=O)(=O)O)O[C@H]1N=[N+]=[N-]  Kd (Bone morphogenetic protein 2; ligand displacement, FP): 185 µM
CC(C)C[C@H](NC(=O)[C@H](CCC(=O)O)NC(=O)[C@H](CC(=O)O)NC(=O)[C@H](CC(C)C)NC(=O)[C@H](CC(C)C)NC(=O)[C@H](CCCNC(=N)N)NC(=O)[C@H](CC(=O)O)NC(=O)[C@H](CC(C)C)NC(=O)[C@H](CCC(=O)O)NC(=O)[C@H](CO)NC(=O)[C@H](CC(C)C)NC(=O)[C@H](CC(N)=O)NC(=O)CCCCCNC(=O)c1ccc2c(c1)C(=O)OC21c2ccc(N(C)C)cc2Oc2cc(N(C)C)ccc21)C(=O)N[C@@H](CC(N)=O)C(=O)O  Kd (Focal adhesion kinase 1, FAT domain (PTK2, Homo sapiens, UniProt Q05397, E948A/K955A/R962A/V932A); binding, fluorescence polarization saturation; two-site mutant KER+V932A): no binding
CCCn1c(=O)c2[nH]c(-c3ccc(OCC(=O)NCCNC(=O)CCCCCCCNS(=O)(=O)c4cccc5c(N(C)C)cccc45)cc3)nc2n(CCC)c1=O  Kd (ADORA1; CRE reporter gene, antagonist, parallel shift; CHO-A1; Gi-mediated inhibition, added: NECA and forskolin): 0.0372 µM
CC(=O)N[C@@H]1[C@@H](O[C@@H]2O[C@H](C(=O)O)[C@@H](O[C@@H]3O[C@H](COS(=O)(=O)O)[C@@H](OS(=O)(=O)O)[C@H](O[C@@H]4O[C@H](C(=O)O)[C@@H](O[C@@H]5O[C@H](COS(=O)(=O)O)[C@@H](OS(=O)(=O)O)[C@H](O[C@@H]6O[C@H](C(=O)O)[C@@H](OS(=O)(=O)O)[C@H](OS(=O)(=O)O)[C@H]6OS(=O)(=O)O)[C@H]5NC(C)=O)[C@H](OS(=O)(=O)O)[C@H]4OS(=O)(=O)O)[C@H]3NC(C)=O)[C@H](OS(=O)(=O)O)[C@H]2OS(=O)(=O)O)[C@H](OS(=O)(=O)O)[C@@H](COS(=O)(=O)O)O[C@H]1N=[N+]=[N-]  Kd (Bone morphogenetic protein 2; ligand displacement, FP): 0.214 µM
O=C(O[C@@H]1Cc2c(O)cc(O)cc2O[C@@H]1c1cc(O)c(O)c(O)c1)c1cc(O)c(O)c(O)c1  Kd (PNLIP (Sus scrofa, UniProt P00591); binding, fluorescence titration; pH 8.0): 36 µM
C=CCCCCCCO[C@@H]1O[C@H](CO)[C@H](O)[C@H](O[C@@H]2O[C@H](CO)[C@H](O)[C@H](O)[C@H]2O[C@@H]2O[C@@H](C)[C@@H](O)[C@@H](O)[C@@H]2O)[C@H]1O  Kd (ABO G235S/G268A/L266M/R176G; methyl-TROSY NMR titration lineshape analysis; apo enzyme): 1270 ± 20 µM
O=C(O)C(CO)NCc1cc(Cl)c(OCc2cccc(-c3ccccc3)c2Br)cc1OCc1cccnc1 (centres unmarked)  Kd (CD274 (Homo sapiens, UniProt Q9NZQ7); binding, SPR): 3.67e-05 µM
Cc1n(Cc2ccc(N=[N+]=[N-])cc2)c2c([n+]1CCOCCOCCNC(=O)CCCC[C@@H]1SC[C@@H]3NC(=O)N[C@@H]31)C(=O)c1ccccc1C2=O  Kd (RIPK2 (Homo sapiens, UniProt O43353); binding): ~2.3 µM
CN(C)c1cc2ccccc2c(N)n1  Kd (CUGBP Elav-like family member 1, RRM1/2 domains (CELF1, Homo sapiens, UniProt Q92879, C177A); isothermal titration calorimetry; 25 °C): 21.3 ± 3.3 µM
Cc1cc(C#CC2(O)CCCCC2)cc2c1cc(C(=O)O)n2-c1cccc(Cl)c1  Kd (Microphthalmia-associated transcription factor (Homo sapiens, UniProt O75030); binding, ITC): 0.39 µM

Some of these lines once more:
N[C@@H](Cc1ccc(O)c(I)c1)C(=O)O  Kd (Iodotyrosine deiodinase (IYD, Thermotoga neapolitana, UniProt B9K712); binding, FMN fluorescence quenching; pH 7.4, 25 °C, wild-type enzyme): 0.05 ± 0.02 µM
CC(=O)c1cnc(N)nc1N1CC[C@H]1c1nn2ccc(Cl)c2c(=O)n1-c1ccccc1  Kd (Phosphatidylinositol 4,5-bisphosphate 3-kinase catalytic subunit delta isoform, with p85 (PIK3CD, Homo sapiens, UniProt O00329); binding, SPR): 0.00243 µM
COc1cc(-c2nc3ccc(C(=O)NCCCN4CCN(c5cccc(C)c5C)CC4)cc3n2C2CCC2)cc(OC)c1OC  Kd (BMPR1A (Homo sapiens, UniProt P36894); binding, TR-FRET): 0.113 µM
C[C@H](NC(=O)[C@H](C)NC(=O)[C@H](Cc1ccc(O)cc1)NS(=O)(=O)c1cccc2c(N(C)C)cccc12)C(=O)N[C@@H](CCCNC(=N)N)C(=O)N[C@@H](CCCCN)C(=O)N[C@@H](Cc1ccccc1)C(=O)N[C@@H](C)C(=O)N[C@@H](CCCCN)C(=O)O  Kd (Rho guanine nucleotide exchange factor TIAM2, PDZ domain (Tiam2, Mus musculus, UniProt Q6ZPF3); fluorescence anisotropy; 25 °C, added: dansylated peptide 1 µM): > 250 µM
CC(C)C[C@H](NC(=O)[C@H](CC(C)C)NC(=O)[C@H](CC(=O)O)NC(=O)[C@@H](N)CCCCN)C(=O)N[C@@H](CCC(=O)O)C(=O)N[C@@H](CCC(N)=O)C(=O)N[C@@H](CCCCN)C(=O)N[C@@H](CCCNC(=N)N)C(=O)N[C@@H](C)C(=O)N[C@@H](C)C(=O)N[C@H](C(=O)N[C@@H](CC(=O)O)C(=O)N[C@H](C(=O)N[C@@H](Cc1ccc(O)cc1)C(=O)N[C@@H](CS)C(=O)O)[C@@H](C)O)C(C)C  Kd (Calreticulin, N-domain (Calr, Mus musculus, UniProt P14211); SPR; pH 7.4, 25 °C): 9.6 ± 3.8e-06 µM
